Experimental data collected from several papers.
Lines come from different studies, so protocols differ. Numbers after ± are the reported error.

| SMILES | test | test system | conditions | how to read | quantity | result |
| --- | --- | --- | --- | --- | --- | --- |
| N.N.[Cl][Pt][Cl] | – | mice, serum | dose not given | – | AST | 132 IU/L |
| CCc1ccc(CC/C=C/c2ccc3c(c2)C(=O)CC3)cc1 | – | Sprague-Dawley rat, male | oral, 30 mg/kg/day, 14 days | – | Urea | 4.93 mM |
| COc1cc2c(Oc3ccc4[nH]c(C)cc4c3F)ccnc2cc1OCC1(N)CC1 | – | paediatric recurrent refractory sarcoma | 8 mg | – | grade 1 or 2 gingival bleeding | 0% |
| COc1ncccc1-c1cnn2ccc(N3CCN(C(=O)OC(C)C)CC3)nc12 | – | mouse nerve ligation model, brain | oral, 10 mg/kg, 120 min after last dose, repeat dosing day 1 | – | drug concentration | 7.5 µM |
| COc1ccc(-c2c(-c3ccc(C#N)c(F)c3)nc(N3CCC(N)CC3)n(C)c2=O)cc1F | item: Diarrhea | relapsed/refractory marginal zone lymphoma patients | oral, 60 mg, any grade, dose expansion | – | treatment-related adverse event incidence | 0% |
| C=C(CN(C(=O)c1c(C(F)F)nn(C)c1F)C1CC1)c1ccc(Cl)cc1Cl | static acute toxicity test | zebrafish (Brachydanio rerio) | 0.482 mg a.i./L, 24 h | – | mortality | 0% |
| O=[N+]([O-])NC1=NCCN1Cc1ccc(Cl)nc1 | – | whole cow milk | 20 nM nominal | – | dose fraction in skim milk | 96.6% |
| NC(=O)N1c2ccccc2C=Cc2ccccc21 | PAMPA | pre-coated trilayer membrane | 200 µM, 5 h, pH 7.4, acceptor plate, PBS | – | acceptor concentration | 43.8 ± 2.5 µM |
| CN(C)C(=O)c1cc2cnc(Nc3ccc(N4CCNCC4)cn3)nc2n1C1CCCC1 | item: Hepatobiliary toxicity, AESI | human, HR+/HER2− advanced breast cancer | oral, dose not given, grade 4, CTCAE v4.03 | – | patients with adverse event | 0.9% |
| C[C@@H]1OC(=O)NN=C1c1ccc(-c2ccc(F)cc2)c(C(F)(F)F)c1 | phase I trial, item: platelet count decreased all grades | human patients | 10 mg loading then 0.5 mg daily | – | patients with adverse event | 0% |
| CNC(=O)c1cc(Oc2ccc(NC(=O)Nc3cc(C(C)(C)C)nn3-c3ccc4ncccc4c3)c(F)c2)ccn1 | muscular weakness, NCI CTC v3.0 | human patients | oral, 200 mg twice daily, tablet, dose at onset | – | related SAE | 25% |
| Cn1cc(-c2nc(N[C@@H]3CCCC[C@@H]3N)c(F)c3c2C(=O)NC3)cn1 | item: Hematochezia | patients with relapsed or refractory AML | oral, 80 mg twice daily | – | hemorrhagic adverse events | 17% |
| C[C@@H](NC(=O)N1C(=O)[C@H](Cc2ccnc(N)c2)[C@H]1C(=O)O)C1CCCCC1 | – | healthy adult Chinese volunteers | continuous intravenous infusion, 0.3 mg/kg/h, 5-day infusion, CTCAE 5.0 grading | – | incidence of elevated creatine phosphokinase | 12.5% |
| O=C(Nc1ccccc1)C1CCN(C(=O)Oc2cccnc2)CC1 | Bond-Lader VAS | healthy women | 60 mg | reference: pre-dose baseline, direction not given | change in Alert-Drowsy score | 2.2 |
| CO[C@H]1C[C@@H]2CC[C@@H](C)[C@@](O)(O2)C(=O)C(=O)N2CCCC[C@H]2C(=O)O[C@H]([C@H](C)C[C@@H]2CC[C@@H](OC(=O)NCCOCCOCCOCCOCCOCCOCCOCCOCCC(=O)N3CCc4cc(Cn5nc(-c6ccc7oc(N)nc7c6)c6c(N)ncnc65)ccc4C3)[C@H](OC)C2)C[C@@H](O)[C@H](C)/C=C(\C)[C@@H](O)[C@@H](OC)C(=O)[C@H](C)C[C@H](C)/C=C/C=C/C=C/1C | – | patients with advanced solid tumours | intravenous, dose not given, any grade | – | incidence of Rash TRAE | 17.5% |
| C[C@]1(O)C[C@@](N)(c2ccc(-c3nc4n(c3-c3ccccc3)COc3ccncc3-4)cc2)C1 | – | human, advanced or metastatic solid tumours | dose not given, all patients | – | patients with serious adverse event | 52.9% |
| CN1CCN(S(=O)(=O)c2cc([N+](=O)[O-])ccc2N(CCOS(C)(=O)=O)CCOS(C)(=O)=O)CC1 | – | naive NOD/SCID mice, pooled blood | intraperitoneal, 25 mg/kg, week 4 | – | total protein | 59 g/L |
| Cc1cc(Nc2ncc(Cl)c(Nc3ccccc3S(=O)(=O)C(C)C)n2)c(OC(C)C)cc1C1CCNCC1 | – | advanced solid tumour patients | oral, daily, together with: gemcitabine | – | MTD | 600 mg |
| COc1cc(C(=O)NC2CCN(C)CC2)c(F)cc1Nc1ncc(C(F)(F)F)c(Oc2cccc3c2C(=O)N(C)C3)n1 | – | human patients, plasma | oral, 100 mg single dose, geometric mean | – | mean residence time | 29.3 h |
| Clc1cc2c(cc1Cl)Oc1c(ccc(Cl)c1Cl)O2 | – | whole cow milk | 2000 nM nominal | – | dose fraction in skim milk | 5.34% |
| CN[C@@H](C)C(=O)N[C@H]1CN(S(=O)(=O)c2cccc(S(=O)(=O)N3CC[C@H]4CC[C@@H](C(=O)NC(c5ccccc5)c5ccccc5)N4C(=O)[C@@H](NC(=O)[C@H](C)NC)C3)c2)CC[C@H]2CC[C@@H](C(=O)NC(c3ccccc3)c3ccccc3)N2C1=O | – | patients with advanced solid tumours | 12 mg, phase I monotherapy | – | treatment-related ALT elevation incidence | 0% |
| C[C@]1(CO)Cc2ncn(-c3ccc(C#N)c(Cl)c3)c2C(=O)O1 | – | healthy humans | 10 mg, fasted | – | drug-related Headache incidence | 25% |
| CC(C)[C@@H]1CC[C@@H](C)C[C@@H]1O | acute oral toxicity OECD | Swiss albino mice, serum | oral, 300 mg/kg | – | aspartate aminotransferase | 53.8 ± 4.59 U/L |
| S=c1[nH]c(CCc2ccccc2)no1 | – | human plasma | – | – | fraction unbound | 0.01 |
